Measurements collected from several papers.
Numbered parts are unrelated; each lists some results of a single study. Positions count from the first letter of the parent shown.
Chain of UniProt O75914 (whole entry, looked up): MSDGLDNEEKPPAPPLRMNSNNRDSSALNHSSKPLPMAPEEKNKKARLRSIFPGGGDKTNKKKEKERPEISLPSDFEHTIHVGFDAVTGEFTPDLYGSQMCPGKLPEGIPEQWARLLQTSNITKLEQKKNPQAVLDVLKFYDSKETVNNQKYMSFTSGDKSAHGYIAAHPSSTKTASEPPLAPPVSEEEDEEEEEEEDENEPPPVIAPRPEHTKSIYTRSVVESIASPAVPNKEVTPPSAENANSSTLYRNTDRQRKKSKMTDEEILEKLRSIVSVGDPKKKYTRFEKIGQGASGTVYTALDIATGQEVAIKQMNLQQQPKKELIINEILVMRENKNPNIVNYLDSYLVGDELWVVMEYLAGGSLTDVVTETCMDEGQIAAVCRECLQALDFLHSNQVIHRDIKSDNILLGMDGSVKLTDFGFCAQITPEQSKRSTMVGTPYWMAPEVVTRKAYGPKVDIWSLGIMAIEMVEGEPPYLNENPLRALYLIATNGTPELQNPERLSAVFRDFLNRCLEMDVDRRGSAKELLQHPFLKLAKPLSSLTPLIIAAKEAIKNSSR

Series 1 — target: inorganic phosphate, free oxyanion; method: microfluidic competitive inhibition; medium: in vitro, cell-free expressed; concentration: not given; reading: lower = stronger binding; measurement: phosphate dissociation constant
Setting: derived from inhibition constants, unchanged parent 615000 nM
Parent: PafA, mature enzyme, eGFP fusion (Elizabethkingia meningoseptica, UniProt Q9KJX5); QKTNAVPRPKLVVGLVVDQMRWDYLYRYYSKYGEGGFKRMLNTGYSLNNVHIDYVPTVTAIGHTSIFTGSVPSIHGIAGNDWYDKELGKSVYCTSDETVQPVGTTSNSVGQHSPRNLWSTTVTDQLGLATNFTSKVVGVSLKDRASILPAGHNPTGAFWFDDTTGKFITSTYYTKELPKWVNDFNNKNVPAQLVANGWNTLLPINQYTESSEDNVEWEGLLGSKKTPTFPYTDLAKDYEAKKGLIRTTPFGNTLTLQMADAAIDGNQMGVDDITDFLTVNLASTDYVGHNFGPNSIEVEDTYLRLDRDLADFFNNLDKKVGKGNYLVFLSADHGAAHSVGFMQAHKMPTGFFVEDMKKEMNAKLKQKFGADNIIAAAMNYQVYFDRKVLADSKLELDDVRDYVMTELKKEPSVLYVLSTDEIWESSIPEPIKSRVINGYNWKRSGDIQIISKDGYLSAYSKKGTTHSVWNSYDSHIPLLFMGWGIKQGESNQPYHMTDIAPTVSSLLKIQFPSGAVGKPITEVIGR
V279G: 387 µM
D398V: 672 µM
V58A: 614 µM
S392V: 683 µM
T301V: 665 µM
P227V: 453 µM
S70G: 389 µM
A145V: 2640 µM

Series 2 — target: CCNF, cyclin fold, Cln2 fusion (human); method: yeast growth competition, sequencing; medium: yeast; setting: strong parent motif; baseline: not given; reading: higher = stronger binding; measurement: normalised enrichment score; parent: viral docking peptide; TSVRRALFTGGSD
G11K: 8.61
V3M: 3.1
S12A: 8.15
G11T: 8.5
G11C: 8.46
G10D: 7.75
A6Q: 8.32
L7T: 0.515

Mixed results
O=c1nc(-c2ccccn2)sc2ccccc12
inhibition (D(1B) dopamine receptor (DRD5, Homo sapiens, UniProt P21918); ligand displacement; 10 µM): 21.5%

O=C1NC(=O)c2c1c1c3ccccc3n3c1c1c2c2ccccc2n1[C@H]1CC[C@@H]3O1
remaining activity (Serine/threonine-protein kinase PAK 3 (PAK3, Homo sapiens, UniProt O75914); enzyme activity, inhibitor; 0.5 µM; baseline: control): 41.7%

For quick reference, copied from above (series 1):
T301V: 665 µM
